# Measured values of several laboratories.
# Each numbered part is a random draw from the data of one study; scales do not carry over between parts.

# Series 1 — technique: RNAcompete; form: RNA; sample: in vitro; tested at: 20 nM; setting: 7-mer, probes averaged, single round; reference: mean of 7-mers; reading: higher = stronger binding
# Target: PABPC1L2, full length, GST fusion (mouse, UniProt A0ABA7IW68)
# Target sequence (chain): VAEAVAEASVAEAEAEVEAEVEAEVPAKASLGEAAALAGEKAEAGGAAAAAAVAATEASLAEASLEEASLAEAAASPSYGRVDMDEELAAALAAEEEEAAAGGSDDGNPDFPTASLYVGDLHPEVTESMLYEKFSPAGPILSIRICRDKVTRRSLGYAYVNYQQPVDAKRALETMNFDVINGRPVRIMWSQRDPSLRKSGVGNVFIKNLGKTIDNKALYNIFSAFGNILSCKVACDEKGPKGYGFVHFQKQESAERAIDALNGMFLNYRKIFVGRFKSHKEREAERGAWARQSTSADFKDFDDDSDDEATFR
Sequence,7-mer Z-score
CUGUGAC,-0.271
UUUUAGA,0.153
GACAGUU,-0.168
CUAUCUG,-0.18
CCGAAGA,-0.0826
AGGAGAA,0.476
GAGCCCU,-0.269
CGACAGC,-0.0482
CACGUAC,-0.191
UCUGGCU,-0.228
GAUGGCG,-0.0554
ACGGGAG,0.0877
UUCUUCA,-0.369
GUGGUGC,0.00254
CCUAUUC,-0.387
UCUUUAA,0.276
GUGAACC,-0.248
GCAGCUG,-0.148
CCGGGGC,-0.0899
GUGGUUG,-0.231
AACGUUG,-0.0482
ACCGUGA,-0.0953
AUAACAU,0.0152
CAAGGAC,0.263

# Series 2 — technique: protein binding microarray; form: double-stranded DNA, one strand shown; sample: in vitro; tested at: not given; reference: not given; reading: higher = stronger binding
# Target: Histone acetyltransferase KAT6A, winged helix 2, GST fusion (KAT6A, Homo sapiens, UniProt Q92794, residues 85-181)
# Setting: 8-mer, flanks averaged, mean of 2 arrays, mostly near background
# Construct (chain): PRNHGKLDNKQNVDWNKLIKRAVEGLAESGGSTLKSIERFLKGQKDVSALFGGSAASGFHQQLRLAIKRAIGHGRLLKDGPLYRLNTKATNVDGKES
Sequence,E-score
AAAACCTA,0.0849
AGGGCGCA,0.116
GTATTGCA,-0.0921
AGTACGCG,0.036
TAGGCACA,-0.0194
AATTCTTG,-0.0472
AGGAAGAT,-0.114
TCTCCAAA,0.0889
ACTCATAG,-0.184
ATCCTCAG,0.026
GCGCATCC,-0.0597
AGAGCTAT,-0.168
AGGATGTC,-0.0905
CGTTGCTA,0.0804
AATATCGG,0.0125
ACGCTCAC,-0.0871
ACGCTCGG,0.051
ACGATTTG,-0.0535
ACAGTAGG,-0.0203
AGGTTTGG,-0.0151
CGATACCC,-0.11
AGTGCTCC,-0.0498

# Series 3 — technique: universal PBM; form: double-stranded DNA, one strand shown; sample: in vitro; tested at: 600 nM; reading: higher = stronger binding
# Target: Sal-like protein 4, full length isoform A (SALL4, Homo sapiens, UniProt Q9UJQ4, residues 1-1053)
# Chain of UniProt Q9UJQ4 (whole entry, looked up): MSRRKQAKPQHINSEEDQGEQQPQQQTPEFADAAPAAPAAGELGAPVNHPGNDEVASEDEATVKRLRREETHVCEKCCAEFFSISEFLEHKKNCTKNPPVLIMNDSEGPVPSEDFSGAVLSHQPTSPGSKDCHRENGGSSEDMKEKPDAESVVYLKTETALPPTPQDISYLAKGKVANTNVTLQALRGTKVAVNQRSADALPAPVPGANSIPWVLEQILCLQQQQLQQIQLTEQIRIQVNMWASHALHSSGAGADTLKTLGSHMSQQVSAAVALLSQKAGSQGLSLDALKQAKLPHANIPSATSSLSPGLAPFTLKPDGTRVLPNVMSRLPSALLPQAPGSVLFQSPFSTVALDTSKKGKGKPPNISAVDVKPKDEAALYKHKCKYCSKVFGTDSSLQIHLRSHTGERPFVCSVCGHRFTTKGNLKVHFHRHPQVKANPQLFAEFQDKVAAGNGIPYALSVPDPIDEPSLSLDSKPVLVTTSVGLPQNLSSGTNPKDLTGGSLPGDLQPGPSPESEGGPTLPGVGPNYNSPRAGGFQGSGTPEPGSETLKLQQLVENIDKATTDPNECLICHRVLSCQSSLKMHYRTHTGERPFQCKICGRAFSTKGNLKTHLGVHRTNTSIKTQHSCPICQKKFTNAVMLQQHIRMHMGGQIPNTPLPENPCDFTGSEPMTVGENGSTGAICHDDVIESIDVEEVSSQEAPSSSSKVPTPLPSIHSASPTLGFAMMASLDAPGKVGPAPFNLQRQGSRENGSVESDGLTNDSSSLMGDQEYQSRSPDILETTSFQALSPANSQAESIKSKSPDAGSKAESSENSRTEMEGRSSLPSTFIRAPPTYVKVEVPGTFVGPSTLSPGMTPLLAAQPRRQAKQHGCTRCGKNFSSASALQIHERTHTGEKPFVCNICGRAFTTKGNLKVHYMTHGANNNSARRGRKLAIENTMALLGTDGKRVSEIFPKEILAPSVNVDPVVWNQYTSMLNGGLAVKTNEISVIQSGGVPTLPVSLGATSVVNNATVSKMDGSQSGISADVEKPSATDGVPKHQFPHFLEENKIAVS
# Setting: 8-mer, flanks averaged, mean of replicates
Sequence,E-score
ACGCGCCA,-0.191
CAAAGGGA,0.00494
CCCAACAC,-0.195
CGTAAGCA,-0.105
GTCGACTA,0.0838
ATTGCCTG,0.0433
GTGCCTAA,-0.0359
GTAAGAAA,0.0364
GATTATAC,0.19
TTGCGAAA,0.104
ATTCGAGA,0.129
GGGCGTAA,-0.163
ATGAGTTC,0.107
AACCAAAA,0.254
AGGGATCC,-0.376
GTCCACGA,-0.208

# Series 4 — technique: protein-binding microarray; form: double-stranded DNA, one strand shown; sample: in vitro; tested at: 250 nM; setting: 60-bp whole probe; together with: salmon DNA 0.4 mg/ml; reference: random background probes; reading: higher = stronger binding; shared flanks, not repeated: GCCTAGCAC … GTCTTGATTCGCTTGACGCTGCTG
# Target: Interferon regulatory factor 7, full length, phosphomimetic (IRF7, Homo sapiens, UniProt Q92985, residues 1-503, S101K/S471D/S472D/S475D/S476D/S477D/S483D/S484D/S487D)
# Construct (chain): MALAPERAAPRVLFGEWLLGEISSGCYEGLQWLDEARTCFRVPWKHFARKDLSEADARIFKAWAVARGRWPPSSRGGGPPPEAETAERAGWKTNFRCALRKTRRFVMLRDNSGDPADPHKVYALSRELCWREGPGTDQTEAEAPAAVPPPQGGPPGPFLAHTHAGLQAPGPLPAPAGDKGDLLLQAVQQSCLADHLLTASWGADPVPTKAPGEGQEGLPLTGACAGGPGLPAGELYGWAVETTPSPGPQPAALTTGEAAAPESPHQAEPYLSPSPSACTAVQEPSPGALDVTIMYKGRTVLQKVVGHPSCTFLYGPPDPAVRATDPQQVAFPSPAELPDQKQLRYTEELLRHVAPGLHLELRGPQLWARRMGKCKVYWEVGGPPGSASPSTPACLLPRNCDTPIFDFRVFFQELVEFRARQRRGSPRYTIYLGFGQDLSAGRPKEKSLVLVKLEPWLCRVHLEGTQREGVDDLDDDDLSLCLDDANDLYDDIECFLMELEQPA
Sequence,log fluorescence
GACGGTATCGCGTTTCGGGACGTGCTA,0.763 z-score
TCACATCTGTCATGTTTGACTGTGCTA,0.0231 z-score
TGCTTTCTCTTTCATTGCTGCGTGCTA,3.25 z-score
TCATCCCTTTCTCTCTGACTGTGCTAG,1.85 z-score
GACGGTTTCGAGTTTCGGGACGTGCTA,11.5 z-score
TCTGTCCTGATAGCCCTGGCGTGCTAG,-0.241 z-score
GACGATATCAGCCTCGAGACGTGCTAG,-0.22 z-score
GACGGTATCGACTATCTGGACGTGCTA,-0.252 z-score
TTAGAACTGAGACTGGACTAGTGCTAG,-0.206 z-score
CTTTCTGTCAGTTTTGAGCTGTGCTAG,1.15 z-score
TCATCTCCGGGGTCTGTGACTGTGCTA,-0.221 z-score
TTAGGTATCGGGAGTGGGTTAGTGCTA,-0.13 z-score
GACGGTCTTCTTATCCTGACGTGCTAG,0.181 z-score
GACGATATCAGTCGCGAGACGTGCTAG,-0.308 z-score

# Series 5 — technique: aptamer microarray, sandwich; form: DNA with 2'F-ANA; sample: in vitro; tested at: 200 nM; together with: Cy3 exosite-II aptamer, 400 nM; reading: higher = stronger binding; sequence: GGTTGGTGTGGTTGG
# Target: Prothrombin, mature alpha-thrombin (F2, Homo sapiens, UniProt P00734)
# Setting: whole 15-mer aptamer, many near background
Modification,mean fluorescence intensity
2'F-ANA at 2 5 9 10 11 12 13,50.7 a.u.
2'F-ANA at 2 4 5 6 7 9 10 13,46.9 a.u.
2'F-ANA at 3 4 6 7 10 12 14,196 a.u.
2'F-ANA at 3 6 7 8 11 13 14,568 a.u.
2'F-ANA at 3 4 9 10 12 14,206 a.u.
2'F-ANA at 3 8 9 12 13,1140 a.u.
2'F-ANA at 1 4 7 9 10 11 12 13 14 15,52.3 a.u.
2'F-ANA at 2 4 6 7 8 9 10 11 14 15,63.7 a.u.
2'F-ANA at 3 4 7 10 11 12 13,307 a.u.
2'F-ANA at 3 4 5 12 13 14,59.9 a.u.
2'F-ANA at 6 7 9 12,765 a.u.
2'F-ANA at 2 3 4 7 11 15,536 a.u.
2'F-ANA at 1 3 5 8 9 10,47.7 a.u.
2'F-ANA at 1 3 5 6 7 8 9 11 15,125 a.u.
2'F-ANA at 1 4 5 7 8 11 12 14 15,51.7 a.u.
2'F-ANA at 2 5 7 9 10 12 13,50.3 a.u.
2'F-ANA at 4 5 7 8 10 12 13,48.6 a.u.
2'F-ANA at 2 4 5 8 9,86.6 a.u.

# Series 6 — technique: RNA Bind-n-Seq; form: RNA; sample: in vitro; tested at: 90 pmol; setting: 4-mer, random 30-nt RNA, single round; reference: input library; reading: higher = stronger binding
# Target: ATP-dependent RNA helicase DDX3X, helicase core (DDX3X, Homo sapiens, UniProt O00571, residues 132-607)
# Chain of UniProt O00571 (132-607, looked up): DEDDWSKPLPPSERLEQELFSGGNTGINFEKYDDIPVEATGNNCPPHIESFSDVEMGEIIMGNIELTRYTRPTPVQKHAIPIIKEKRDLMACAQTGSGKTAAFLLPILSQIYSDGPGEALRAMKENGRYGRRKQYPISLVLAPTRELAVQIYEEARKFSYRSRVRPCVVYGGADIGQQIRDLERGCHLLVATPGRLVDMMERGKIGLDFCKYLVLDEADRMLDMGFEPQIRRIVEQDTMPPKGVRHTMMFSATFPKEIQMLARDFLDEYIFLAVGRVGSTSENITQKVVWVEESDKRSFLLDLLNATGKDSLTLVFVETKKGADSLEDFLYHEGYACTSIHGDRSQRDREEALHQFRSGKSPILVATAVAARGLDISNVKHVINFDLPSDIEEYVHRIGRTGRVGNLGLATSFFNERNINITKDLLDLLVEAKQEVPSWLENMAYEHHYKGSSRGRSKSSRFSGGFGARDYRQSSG
# Together with: 3 µM iPr-DMDA-PatA, 2 mM ADP, 2 mM phosphate
Sequence,4-mer enrichment
UCGU,0.906 fold
UAGU,1.06 fold
CGAG,1.02 fold
GCAU,0.803 fold
CUCU,0.853 fold
CCUC,1.02 fold
ACAC,1.21 fold
CAAC,1.16 fold
CCUU,0.854 fold
CUCG,0.814 fold
GGUU,0.872 fold
AGUC,1.02 fold
GUAA,1.15 fold
UAUG,0.986 fold
GUCG,0.935 fold

# Repeated from above (series 3):
Sequence,E-score
GTCGACTA,0.0838
GGGCGTAA,-0.163
AGGGATCC,-0.376
GTAAGAAA,0.0364
CGTAAGCA,-0.105
GTGCCTAA,-0.0359
ACGCGCCA,-0.191
CAAAGGGA,0.00494
TTGCGAAA,0.104
